Measured values collected from several papers.
Protocols differ between the studies behind these lines. ± marks the error that the study gave.

CCCC[C@H](NC(=O)COCCOCCNC(=O)CN1CCN(CC(=O)O)CCN(CC(=O)O)CC1)C(=O)N[C@H]1CC(=O)NCCCC[C@@H](C(N)=O)NC(=O)[C@H](Cc2c[nH]c3ccccc23)NC(=O)[C@H](CCCNC(=N)N)NC(=O)[C@@H](Cc2ccccc2)NC(=O)[C@H](Cc2c[nH]cn2)NC1=O [copper-64 labelled] — tissue uptake (C57 mice, blood; intravenous, 0.37 MBq, 2 h): 0.18 ± 0.06 %ID/g
C[N+]1=C(C=CC=CC=C2N(CCCCCC(=O)NCCCC[C@H](NC(=O)[C@@H](CCC(=O)O)NC(=O)[C@@H](CCC(=O)O)NC(=O)[C@@H](CCC(=O)O)NC(=O)CCCCCNC(=O)C3CCC(CNC(=O)CC[C@H](NC(=O)N[C@@H](CCC(=O)O)C(=O)O)C(=O)O)CC3)C(N)=O)c3ccc4ccccc4c3C2(C)C)C(C)(C)c2c1ccc1ccccc21 (stereo partly shown) — HPLC retention time (reversed-phase HPLC, C18; 5-55% acetonitrile over 30 min): 39.4 min
COC(=O)[C@H](CSSC(C)(C)[C@H](NC(=O)[C@H](CCC(=O)NC[C@H](O)[C@@H](O)[C@H](O)[C@H](O)CO)NC(=O)[C@H](CCC(=O)O)NC(=O)[C@H](CCC(=O)NC[C@H](O)[C@@H](O)[C@H](O)[C@H](O)CO)NC(=O)[C@H](CCC(=O)O)NC(=O)[C@H](CCC(=O)NC[C@H](O)[C@@H](O)[C@H](O)[C@H](O)CO)NC(=O)CC[C@H](NC(=O)c1ccc(NCc2cnc3nc(N)[nH]c(=O)c3n2)cc1)C(=O)O)C(=O)O)NC(=O)CC[C@H](NC(=O)c1ccc(NCc2cnc3nc(N)[nH]c(=N)c3n2)cc1)C(=O)O — terminal half-life (beagle dog, male, plasma; intravenous or subcutaneous): 1.01 to 1.21 h
CCCC[C@H](NC(=O)CNC(=O)CNC(=O)CN1CCN(CC(=O)O)CCN(CC(=O)O)CCN(CC(=O)O)CC1)C(=O)N[C@H]1CC(=O)NCCCC[C@@H](C(N)=O)NC(=O)[C@H](Cc2c[nH]c3ccccc23)NC(=O)[C@H](CCCNC(=N)N)NC(=O)[C@@H](Cc2ccccc2)NC(=O)[C@H](Cc2c[nH]cn2)NC1=O [lutetium-177 labelled] — tissue uptake (C57 mouse, female, skin; intravenous, 0.037 MBq, 0.5 h): 3.28 ± 0.5 %ID/g
N=C(N)NCCC[C@@H]1NC(=O)[C@H](CCCCNC(=O)CC[C@H](NC(=O)CC[C@H](NC(=O)CN2CCN(CC(=O)O)CCN(CC(=O)O)CCN(CC(=O)O)CC2)C(=O)N[C@@H](CCC(=O)NCCCC[C@@H]2NC(=O)[C@@H](Cc3ccccc3)NC(=O)[C@H](CC(=O)O)NC(=O)CNC(=O)[C@H](CCCNC(=N)N)NC2=O)C(=O)NCCCC[C@@H]2NC(=O)[C@@H](Cc3ccccc3)NC(=O)[C@H](CC(=O)O)NC(=O)CNC(=O)[C@H](CCCNC(=N)N)NC2=O)C(=O)NCCCC[C@@H]2NC(=O)[C@@H](Cc3ccccc3)NC(=O)[C@H](CC(=O)O)NC(=O)CNC(=O)[C@H](CCCNC(=N)N)NC2=O)NC(=O)[C@@H](Cc2ccccc2)NC(=O)[C@H](CC(=O)O)NC(=O)CNC1=O [indium-111 labelled] — tissue uptake (female athymic nu/nu mice, intestine; intravenous, 4 h): 9.19 ± 1.58 %ID/g
CCCC[C@H](NC(=O)CCCCCCCNC(=O)CN1CCN(CC(=O)O)CCN(CC(=O)O)CC1)C(=O)N[C@H]1CC(=O)NCCCC[C@@H](C(N)=O)NC(=O)[C@H](Cc2c[nH]c3ccccc23)NC(=O)[C@H](CCCNC(=N)N)NC(=O)[C@@H](Cc2ccccc2)NC(=O)[C@H](Cc2c[nH]cn2)NC1=O [copper-64 labelled] — tissue uptake (C57 mice, liver; intravenous, 0.37 MBq, 0.5 h): 3.42 ± 0.58 %ID/g
N=C(N)NCCC[C@@H]1NC(=O)[C@H](CCCCNC(=O)CNC(=O)CNC(=O)CNC(=O)CC[C@H](NC(=O)CNC(=O)CNC(=O)CNC(=O)CC[C@H](NC(=O)CN2CCN(CC(=O)O)CCN(CC(=O)O)CCN(CC(=O)O)CC2)C(=O)NCC(=O)NCC(=O)NCC(=O)N[C@@H](CCC(=O)NCC(=O)NCC(=O)NCC(=O)NCCCC[C@@H]2NC(=O)[C@@H](Cc3ccccc3)NC(=O)[C@H](CC(=O)O)NC(=O)CNC(=O)[C@H](CCCNC(=N)N)NC2=O)C(=O)NCC(=O)NCC(=O)NCC(=O)NCCCC[C@@H]2NC(=O)[C@@H](Cc3ccccc3)NC(=O)[C@H](CC(=O)O)NC(=O)CNC(=O)[C@H](CCCNC(=N)N)NC2=O)C(=O)NCC(=O)NCC(=O)NCC(=O)NCCCC[C@@H]2NC(=O)[C@@H](Cc3ccccc3)NC(=O)[C@H](CC(=O)O)NC(=O)CNC(=O)[C@H](CCCNC(=N)N)NC2=O)NC(=O)[C@@H](Cc2ccccc2)NC(=O)[C@H](CC(=O)O)NC(=O)CNC1=O [indium-111 labelled] — tissue uptake (female athymic nu/nu mice, blood; intravenous, 24 h): 0.06 ± 0.02 %ID/g
CC[C@@]1(OC(=O)OCCSSC[C@H](NC(C)=O)C(=O)NCCCC[C@H](NC(=O)[C@H](CSSCCOC(=O)O[C@]2(CC)C(=O)OCc3c2cc2n(c3=O)Cc3cc4ccccc4nc3-2)NC(C)=O)C(=O)NCC(=O)N[C@@H](CC(N)=O)C(=O)N[C@@H](CC(N)=O)C(=O)N[C@@H](CCC(N)=O)C(=O)N[C@@H](CCC(N)=O)C(=O)N[C@@H](CC(N)=O)C(=O)N[C@@H](Cc2ccc(O)cc2)C(=O)N[C@@H](CCCCN)C(=O)N[C@@H](CCCCN)C(N)=O)C(=O)OCc2c1cc1n(c2=O)Cc2cc3ccccc3nc2-1 — nanostructure width (TEM; water; 100 µM): 6.9 ± 1.4 nm
N=C(N)NCCC[C@@H]1NC(=O)[C@H](CCCCNC(=O)CNC(=O)CNC(=O)CNC(=O)CC[C@H](NC(=O)CNC(=O)CNC(=O)CNC(=O)CN2CCN(CC(=O)O)CCN(CC(=O)O)CCN(CC(=O)O)CC2)C(=O)NCC(=O)NCC(=O)NCC(=O)NCCCC[C@@H]2NC(=O)[C@@H](Cc3ccccc3)NC(=O)[C@H](CC(=O)O)NC(=O)CNC(=O)[C@H](CCCNC(=N)N)NC2=O)NC(=O)[C@@H](Cc2ccccc2)NC(=O)[C@H](CC(=O)O)NC(=O)CNC1=O [indium-111 labelled] — tissue uptake (female athymic nu/nu mice, heart; intravenous, 0.5 h): 1.03 ± 0.12 %ID/g
C[C@@H](O)[C@H](NC(=O)[C@@H]1CSSC[C@H](NC(=O)[C@@H](Cc2ccccc2)NC(=O)CCCCC2(N(CC(=O)O)CC(=O)O)CN(CC(=O)O)CCN(CC(=O)O)C2)C(=O)N[C@@H](Cc2ccc(O)cc2)C(=O)N[C@H](Cc2c[nH]c3ccccc23)C(=O)N[C@@H](CCCCN)C(=O)N[C@@H]([C@@H](C)O)C(=O)N1)C(=O)O — log conditional stability constant (capillary electrophoresis, NTA competition; 0.15 M NaClO4; pH 7.4, 25 °C): 24.3

A few entries again:
C[C@@H](O)[C@H](NC(=O)[C@@H]1CSSC[C@H](NC(=O)[C@@H](Cc2ccccc2)NC(=O)CCCCC2(N(CC(=O)O)CC(=O)O)CN(CC(=O)O)CCN(CC(=O)O)C2)C(=O)N[C@@H](Cc2ccc(O)cc2)C(=O)N[C@H](Cc2c[nH]c3ccccc23)C(=O)N[C@@H](CCCCN)C(=O)N[C@@H]([C@@H](C)O)C(=O)N1)C(=O)O — log conditional stability constant (capillary electrophoresis, NTA competition; 0.15 M NaClO4; pH 7.4, 25 °C): 24.3
